# Published values gathered from unrelated publications.
# Values joined by “and” are separate records of one study, mostly repeats; a detail may differ. ± gives the spread as reported.
# Genome polyprotein NS3 helicase domain: Genome polyprotein, NS3 helicase domain (Hepatitis C virus genotype 1b, UniProt Q9WMX2)
# CALM1 Ca2+-bound N-lobe: Calmodulin-1, Ca2+-bound N-lobe (CALM1, Homo sapiens, UniProt P0DP23)
# WD repeat-containing protein 91 WD40 domain, residues 392–747: WD repeat-containing protein 91, WD40 domain, residues 392–747 (Homo sapiens, UniProt A4D1P6)
# UniProt A4D1P6, sequence (whole entry, looked up): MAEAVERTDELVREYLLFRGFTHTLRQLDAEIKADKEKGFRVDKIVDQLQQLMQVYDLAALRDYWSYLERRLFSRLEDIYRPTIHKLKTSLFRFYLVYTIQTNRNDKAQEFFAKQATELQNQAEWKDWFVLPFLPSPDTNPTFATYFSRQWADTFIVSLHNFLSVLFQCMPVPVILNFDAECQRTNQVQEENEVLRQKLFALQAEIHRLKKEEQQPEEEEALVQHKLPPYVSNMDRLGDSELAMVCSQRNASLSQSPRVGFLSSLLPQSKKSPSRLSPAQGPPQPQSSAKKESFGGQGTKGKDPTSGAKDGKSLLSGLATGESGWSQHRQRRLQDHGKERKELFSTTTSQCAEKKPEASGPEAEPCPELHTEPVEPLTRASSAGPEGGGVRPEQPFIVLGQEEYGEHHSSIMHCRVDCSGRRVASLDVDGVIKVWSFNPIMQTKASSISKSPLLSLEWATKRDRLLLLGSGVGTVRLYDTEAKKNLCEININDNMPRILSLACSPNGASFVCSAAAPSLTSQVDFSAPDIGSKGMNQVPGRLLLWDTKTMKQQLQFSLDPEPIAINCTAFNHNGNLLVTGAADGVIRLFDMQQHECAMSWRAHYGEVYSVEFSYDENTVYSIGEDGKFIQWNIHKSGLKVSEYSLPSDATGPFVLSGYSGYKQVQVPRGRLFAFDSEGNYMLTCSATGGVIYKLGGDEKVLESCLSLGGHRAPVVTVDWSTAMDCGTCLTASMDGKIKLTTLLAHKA
# WD repeat-containing protein 91: WD repeat-containing protein 91 (Homo sapiens, UniProt A4D1P6)
# NAA80: N-alpha-acetyltransferase 80 (NAA80, Homo sapiens, UniProt Q93015)
# UniProt P51575, sequence (whole entry, unmodified, looked up): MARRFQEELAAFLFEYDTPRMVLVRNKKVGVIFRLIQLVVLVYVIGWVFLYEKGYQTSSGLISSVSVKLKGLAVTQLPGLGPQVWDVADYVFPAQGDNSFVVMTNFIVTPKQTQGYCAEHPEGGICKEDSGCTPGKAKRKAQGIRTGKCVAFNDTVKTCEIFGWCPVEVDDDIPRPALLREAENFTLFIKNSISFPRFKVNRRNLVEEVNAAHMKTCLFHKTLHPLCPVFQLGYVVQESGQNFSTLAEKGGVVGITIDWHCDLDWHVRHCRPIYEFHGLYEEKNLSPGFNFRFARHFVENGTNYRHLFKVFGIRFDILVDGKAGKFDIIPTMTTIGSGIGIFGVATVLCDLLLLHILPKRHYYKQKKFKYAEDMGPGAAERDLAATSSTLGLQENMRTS
# UniProt Q93015, sequence (whole entry, looked up): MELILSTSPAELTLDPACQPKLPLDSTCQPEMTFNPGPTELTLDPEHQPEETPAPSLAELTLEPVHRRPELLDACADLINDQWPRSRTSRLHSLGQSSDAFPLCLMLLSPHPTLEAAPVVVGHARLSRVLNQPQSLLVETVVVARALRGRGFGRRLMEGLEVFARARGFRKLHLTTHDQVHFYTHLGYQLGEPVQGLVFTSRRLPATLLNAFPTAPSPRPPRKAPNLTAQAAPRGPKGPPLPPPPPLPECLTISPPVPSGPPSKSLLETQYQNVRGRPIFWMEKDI
# UniProt Q9NYV4, sequence (whole entry, looked up): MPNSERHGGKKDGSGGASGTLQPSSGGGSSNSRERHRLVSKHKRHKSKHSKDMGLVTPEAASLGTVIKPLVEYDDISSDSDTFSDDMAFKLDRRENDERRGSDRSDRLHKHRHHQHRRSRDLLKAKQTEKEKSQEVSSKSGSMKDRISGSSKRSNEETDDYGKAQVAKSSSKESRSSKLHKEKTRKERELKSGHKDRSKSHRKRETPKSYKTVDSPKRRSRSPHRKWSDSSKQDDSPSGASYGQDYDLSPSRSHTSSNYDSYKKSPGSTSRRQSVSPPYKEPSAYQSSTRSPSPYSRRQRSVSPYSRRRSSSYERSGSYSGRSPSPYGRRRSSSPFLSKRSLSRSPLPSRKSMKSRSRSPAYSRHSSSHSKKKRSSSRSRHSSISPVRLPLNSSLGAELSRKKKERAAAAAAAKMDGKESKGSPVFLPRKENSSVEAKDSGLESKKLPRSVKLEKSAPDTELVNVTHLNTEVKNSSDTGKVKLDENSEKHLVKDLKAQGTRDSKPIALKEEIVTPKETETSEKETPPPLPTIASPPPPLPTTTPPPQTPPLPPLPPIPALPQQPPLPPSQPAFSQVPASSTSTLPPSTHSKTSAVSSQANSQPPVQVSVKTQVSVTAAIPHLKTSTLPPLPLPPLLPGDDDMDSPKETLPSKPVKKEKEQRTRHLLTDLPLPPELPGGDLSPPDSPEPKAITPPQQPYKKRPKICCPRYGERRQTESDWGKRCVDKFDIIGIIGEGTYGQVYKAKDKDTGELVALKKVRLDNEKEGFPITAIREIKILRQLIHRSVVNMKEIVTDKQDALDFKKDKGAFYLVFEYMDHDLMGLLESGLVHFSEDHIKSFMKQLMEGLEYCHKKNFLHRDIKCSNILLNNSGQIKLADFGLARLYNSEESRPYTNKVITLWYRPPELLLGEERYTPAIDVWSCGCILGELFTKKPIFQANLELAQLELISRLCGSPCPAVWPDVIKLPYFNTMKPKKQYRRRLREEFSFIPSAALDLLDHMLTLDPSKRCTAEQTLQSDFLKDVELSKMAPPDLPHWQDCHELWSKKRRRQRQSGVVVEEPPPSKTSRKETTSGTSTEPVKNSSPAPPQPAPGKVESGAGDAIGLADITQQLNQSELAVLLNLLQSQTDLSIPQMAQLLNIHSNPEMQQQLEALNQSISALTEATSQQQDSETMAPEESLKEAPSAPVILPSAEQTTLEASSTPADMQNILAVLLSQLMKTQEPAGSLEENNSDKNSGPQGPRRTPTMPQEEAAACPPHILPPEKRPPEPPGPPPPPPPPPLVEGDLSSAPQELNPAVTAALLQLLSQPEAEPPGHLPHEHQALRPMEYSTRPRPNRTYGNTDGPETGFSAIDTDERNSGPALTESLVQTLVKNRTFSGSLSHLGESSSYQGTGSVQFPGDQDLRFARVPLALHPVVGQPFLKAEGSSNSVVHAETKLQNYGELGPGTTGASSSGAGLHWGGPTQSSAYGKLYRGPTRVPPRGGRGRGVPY
# UniProt P42262, sequence (whole entry, looked up): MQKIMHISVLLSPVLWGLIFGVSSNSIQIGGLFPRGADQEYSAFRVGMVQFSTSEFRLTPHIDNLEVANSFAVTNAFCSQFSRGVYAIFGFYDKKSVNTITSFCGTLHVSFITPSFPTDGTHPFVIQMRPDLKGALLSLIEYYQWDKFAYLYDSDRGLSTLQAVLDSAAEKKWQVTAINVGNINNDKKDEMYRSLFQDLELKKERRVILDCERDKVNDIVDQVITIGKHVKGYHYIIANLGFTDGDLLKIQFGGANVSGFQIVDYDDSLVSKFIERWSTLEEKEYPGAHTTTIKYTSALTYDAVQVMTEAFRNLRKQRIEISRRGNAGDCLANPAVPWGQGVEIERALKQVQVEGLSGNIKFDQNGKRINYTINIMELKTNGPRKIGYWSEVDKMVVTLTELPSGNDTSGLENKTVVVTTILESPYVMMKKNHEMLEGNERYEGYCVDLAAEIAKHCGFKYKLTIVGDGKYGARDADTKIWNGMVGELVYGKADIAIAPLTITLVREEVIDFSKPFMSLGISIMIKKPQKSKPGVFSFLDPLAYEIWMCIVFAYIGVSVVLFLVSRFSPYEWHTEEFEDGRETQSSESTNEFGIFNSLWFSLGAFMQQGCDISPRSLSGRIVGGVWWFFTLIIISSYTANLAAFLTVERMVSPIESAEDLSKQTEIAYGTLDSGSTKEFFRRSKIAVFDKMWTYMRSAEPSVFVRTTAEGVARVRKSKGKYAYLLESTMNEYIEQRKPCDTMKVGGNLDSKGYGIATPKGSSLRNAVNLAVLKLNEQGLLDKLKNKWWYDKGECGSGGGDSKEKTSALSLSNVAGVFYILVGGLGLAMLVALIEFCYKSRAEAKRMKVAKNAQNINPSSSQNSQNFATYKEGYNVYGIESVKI
# UniProt O43525, sequence (whole entry, looked up): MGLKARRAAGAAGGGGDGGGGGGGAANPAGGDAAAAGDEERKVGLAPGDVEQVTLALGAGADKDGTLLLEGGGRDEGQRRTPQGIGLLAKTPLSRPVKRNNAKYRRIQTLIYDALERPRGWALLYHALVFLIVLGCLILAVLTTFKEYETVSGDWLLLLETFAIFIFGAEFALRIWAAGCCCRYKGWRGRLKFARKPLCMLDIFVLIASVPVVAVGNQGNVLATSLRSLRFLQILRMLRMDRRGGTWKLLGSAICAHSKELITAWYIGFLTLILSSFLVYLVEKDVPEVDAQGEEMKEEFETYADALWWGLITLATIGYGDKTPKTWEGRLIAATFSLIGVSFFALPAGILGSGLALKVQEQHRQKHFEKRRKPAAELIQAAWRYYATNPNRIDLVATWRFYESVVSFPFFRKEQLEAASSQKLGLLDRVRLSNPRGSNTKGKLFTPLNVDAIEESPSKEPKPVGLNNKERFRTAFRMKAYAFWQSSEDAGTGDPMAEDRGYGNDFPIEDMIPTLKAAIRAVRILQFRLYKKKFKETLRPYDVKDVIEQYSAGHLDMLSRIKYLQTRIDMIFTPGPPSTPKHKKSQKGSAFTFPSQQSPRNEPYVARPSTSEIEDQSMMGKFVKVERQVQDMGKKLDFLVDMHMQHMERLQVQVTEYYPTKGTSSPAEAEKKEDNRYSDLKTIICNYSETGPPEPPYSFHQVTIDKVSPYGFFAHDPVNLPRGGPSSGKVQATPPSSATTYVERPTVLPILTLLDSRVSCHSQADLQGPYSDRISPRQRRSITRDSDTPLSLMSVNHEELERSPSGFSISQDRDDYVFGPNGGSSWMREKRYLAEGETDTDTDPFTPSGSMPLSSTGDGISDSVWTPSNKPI
# UniProt P31947, sequence (whole entry, looked up): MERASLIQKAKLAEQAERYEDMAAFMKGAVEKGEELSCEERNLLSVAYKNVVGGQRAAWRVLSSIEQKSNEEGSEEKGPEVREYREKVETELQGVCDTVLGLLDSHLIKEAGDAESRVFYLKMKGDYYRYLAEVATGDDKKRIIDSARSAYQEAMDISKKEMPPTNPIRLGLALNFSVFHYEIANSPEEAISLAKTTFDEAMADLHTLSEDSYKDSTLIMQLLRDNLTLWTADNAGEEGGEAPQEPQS
SMILES,target,assay,test system,setting,scale,endpoint,value
O=c1onc2cnc3ccccc3n12,Genome polyprotein NS3 helicase domain,"DNA binding, inhibitor",hepatitis C virus,"100 µM, together with: Cy5-dT15 DNA",,inhibition,0%
CC[C@H](C)[C@H](NC(=O)[C@H](CCSC)NC(=O)[C@H](CCSC)NC(=O)[C@H](C)NC(=O)[C@H](C)NC(=O)[C@H](Cc1ccc(O)cc1)NC(=O)[C@H](C)NC(=O)[C@H](CCCCN)NC(=O)CNC(=O)[C@@H](NC(=O)[C@@H](NC(=O)[C@H](CCSC)NC(=O)[C@H](Cc1c[nH]cn1)NC(=O)CN)[C@@H](C)O)C(C)C)C(=O)N[C@@H](CCSC)C(=O)N[C@@H](CCC(=O)O)C(=O)N[C@@H](Cc1ccc(O)cc1)C(=O)N[C@@H](Cc1ccc(O)cc1)C(=O)N[C@@H](CCCNC(=N)N)C(=O)N[C@@H](CCC(N)=O)C(=O)N[C@@H](CO)C(=O)N[C@@H](CCCCN)C(=O)N[C@@H](C)C(=O)N[C@@H](CCCCN)C(=O)N[C@@H](CCCCN)C(=O)N[C@@H](CC(C)C)C(=O)N[C@@H](CCC(N)=O)C(=O)N[C@@H](C)C(=O)N[C@@H](CCSC)C(=O)N[C@@H](CCCNC(=N)N)C(=O)O,CALM1 Ca2+-bound N-lobe,"binding, isothermal titration calorimetry",,"N-lobe, CaV2.1 IQ domain, unit not given, together with: Ca2+",baseline: wild-type IQ domain,ΔΔG,1.18
O=C(O)[C@@H]1CN(C(=O)c2cc(-c3ccccc3)c[nH]2)C[C@H]1c1ccc(Cl)cc1,"WD repeat-containing protein 91 WD40 domain, residues 392–747",SPR,,45 µM,,binding,30% and 42%
N[C@H]1CON=C1O,Genome polyprotein NS3 helicase domain,"DNA binding, inhibitor",hepatitis C virus,"100 µM, together with: Cy5-dT15 DNA",,inhibition,0%
O=C(NC1CCCS(=O)(=O)c2ccccc21)c1ccc2nc(O)cnc2c1 (stereo not drawn),WD repeat-containing protein 91,"binding, SPR steady state",,0.9375 µM,,SPR response,7.33 RU
C[C@@H](O)[C@H](N)C(=O)O,NAA80,"substrate, DTNB",,"2 mM, 30 min, 37 °C, together with: acetyl-CoA 500 µM",,product formation,1.93 µM
CC[C@H](C)[C@H](NC(=O)[C@H](CCCCN)NC(=O)CNC(=O)[C@@H](NC(=O)[C@@H](NC(=O)[C@H](CCSC)NC(=O)[C@H](Cc1c[nH]cn1)NC(=O)CN)[C@@H](C)O)C(C)C)C(=O)N[C@@H](Cc1ccc(O)cc1)C(=O)N[C@@H](C)C(=O)N[C@@H](C)C(=O)N[C@@H](CCSC)C(=O)N[C@@H](CCSC)C(=O)N[C@H](C(=O)N[C@@H](CCSC)C(=O)N[C@@H](CCC(=O)O)C(=O)N[C@@H](C)C(=O)N[C@@H](Cc1ccc(O)cc1)C(=O)N[C@@H](CCCNC(=N)N)C(=O)N[C@@H](CCC(N)=O)C(=O)N[C@@H](CO)C(=O)N[C@@H](CCCCN)C(=O)N[C@@H](C)C(=O)N[C@@H](CCCCN)C(=O)N[C@@H](CCCCN)C(=O)N[C@@H](CC(C)C)C(=O)N[C@@H](CCC(N)=O)C(=O)N[C@@H](C)C(=O)N[C@@H](CCSC)C(=O)N[C@@H](CCCNC(=N)N)C(=O)O)[C@@H](C)CC,CALM1 Ca2+-bound N-lobe,"binding, isothermal titration calorimetry",,"pH 7.4, 15 °C, N-lobe, CaV2.1 IQ domain, together with: Ca2+",,ΔH,-3.9 ± 0.63 kcal/mol
O=c1c(O[C@@H]2O[C@H](CO)[C@@H](O)[C@H](O)[C@H]2O)c(-c2ccc(O)c(O)c2)oc2cc(O[C@@H]3O[C@H](CO[C@@H]4O[C@H](CO)[C@@H](O)[C@H](O)[C@H]4O)[C@@H](O)[C@H](O)[C@H]3O)cc(O)c12,"Estrogen receptor (ESR1, Homo sapiens, UniProt P03372)",array formation,PRL-HeLa,,baseline: EC50 ERβ over EC50 ERα,selectivity ratio,0.723
CCCN1C[C@H](CSC)C[C@@H]2c3cccc4[nH]cc(c34)C[C@H]21,"Glutamate receptor 2 (Homo sapiens, UniProt P42262)","ion current, agonist, SyncroPatch patch clamp",HEK293,3 µM,,activation,3%
CC[C@H](C)[C@H](NC(=O)[C@H](CCC(=O)O)NC(=O)[C@H](CCC(=O)O)NC(=O)[C@@H]1CCCN1C(=O)[C@H](CC(=O)O)NC(=O)[C@H](C)NC(=O)[C@H](CCC(N)=O)NC(=O)[C@@H](NC(=O)[C@H](C)NC(=O)[C@@H](NC(=O)[C@H](CO)NC(=O)[C@@H](NC(=O)[C@H](CCCCN)NC(=O)[C@@H](N)Cc1ccc(O)cc1)[C@@H](C)O)C(C)C)[C@@H](C)O)C(=O)N[C@H](C(=O)N[C@H](C(=O)N[C@@H](CC(C)C)C(=O)N[C@@H](CC(=O)O)C(=O)N[C@@H](CC(=O)O)C(=O)N[C@@H](CC(=O)O)C(=O)N[C@@H](CC(=O)O)C(=O)O)C(C)C)[C@@H](C)CC,"Small ubiquitin-related modifier 2, N-terminally truncated (Homo sapiens, UniProt P61956, C48A)","binding, ITC",Tris buffer,"pH 7.4, ΔN-SUMO2",,-TΔS,-10.1 ± 0.1 kcal/mol
COc1cc(/C=C/C(=O)C(=Cc2ccccc2)C(=O)/C=C/c2ccc(O)c(OC)c2)ccc1O,haemin,isothermal titration calorimetry,,"concentration not given, pH 7.4, 37 °C",,binding stoichiometry,1.27 ± 0.08
O=C(CCl)Nc1ccc2c(c1)OCCO2,"14-3-3 protein sigma, with ERα phosphopeptide (SFN, Homo sapiens, UniProt P31947)","binding, fluorescence polarization",,"covalent ligand screen, together with: phosphorylated ERalpha peptide",baseline: control,FP signal,99.3%
O=S(=O)(NC1CCN(c2ncnc3c2nc(-c2ccccc2Cl)n3-c2ccc(Cl)cc2)CC1)c1ccccc1F,"Cannabinoid receptor 1 (CNR1, Homo sapiens, UniProt P21554)","antagonist, FLIPR calcium mobilisation",CHO-K1 expressing CNR1 and Gαq16,together with: CP55940,,Ke,0.8 nM
C=CC(=O)N1CCC(COCC(=O)N2CCN(c3nc(-c4cnc(N)nc4C(F)F)nc(N4CCOC[C@@H]4C)n3)CC2)CC1,"Uncharacterized serine/threonine-protein kinase SBK3 (SBK3, Homo sapiens, UniProt P0C264)",KINOMEscan,,1 µM,,remaining binding,91%
CCN1CCCC1CNC(=O)c1cc(S(N)(=O)=O)ccc1OC (stereo not drawn),"D(3) dopamine receptor (DRD3, Homo sapiens, UniProt P35462)","β-arrestin recruitment, antagonist, BRET",,,,maximal inhibition,98 ± 2%
COc1cc2nccc(Oc3ccc(NC(=O)c4cc5c(n(-c6ccccc6)c4=O)CCCC5=O)nc3)c2cc1OC,"Tyrosine-protein kinase Mer (MERTK, Homo sapiens, UniProt Q12866)",inhibitor,human patients,"10 mg daily, monotherapy",,plasma inhibitory activity,80 to 100%
O=C(O)[C@@H](O)[C@@H](O)[C@H](O)CO,"Uncharacterized protein (Chromohalobacter israelensis, UniProt Q1QT90)","binder, thermal shift",,,,delta Tm,3.6 °C
Nc1ccn([C@H]2C[C@H](O)[C@@H](COP(=O)(O)OP(=O)(O)OP(=O)(O)O)O2)c(=O)n1,"DNA polymerase lambda (POLL, Homo sapiens, UniProt Q9UGP5)",substrate,,AP-site template,,kcat,8.33e-05 s⁻¹
N[C@H](C(=O)O)[C@H]1C[C@@H]1C(=O)O,Genome polyprotein NS3 helicase domain,"DNA binding, inhibitor",hepatitis C virus,"100 µM, together with: Cy5-dT15 DNA",,inhibition,2%
Nc1ncnc2c1ncn2[C@@H]1O[C@H](COP(=O)(O)CP(=O)(O)OP(=O)(O)O)[C@@H](O)[C@H]1O,"P2X purinoceptor 1 (P2RX1, Homo sapiens, UniProt P51575, E122A)",calcium influx,,316 nM,baseline: ionomycin response,calcium influx,0.838% and 1% and 0.556% and 2.09%
Cn1cc(-n2cnc3c(NCc4nc5cc(Cl)c(Cl)cc5[nH]4)nc(N4CCOCC4)nc32)cn1,"Cyclin-dependent kinase 12, with cyclin K (CDK12, Homo sapiens, UniProt Q9NYV4)","kinase activity, inhibitor, ADP-Glo",,0.2222 µM,,inhibition,65.2%
NC/C(=C\F)COc1cccc(Cn2c(=S)[nH]c(=O)c3[nH]cnc32)c1,"Myeloperoxidase (MPO, Homo sapiens, UniProt P05164)","H2O2 consumption, inhibitor, H2O2 electrode",,"10 µM, 0.3 s",,H2O2 concentration,-0.103 µM
CC(C)(C)c1ccc(C(=O)Nc2sc3c(c2C(=O)O)CCC3)cc1,"Voltage-gated potassium channel, KQT; KCNQ2(Kv7.2)/KCNQ3(Kv7.3) (KCNQ3/KCNQ2, Homo sapiens, UniProt O43525+O43526)","G(V) shift, activator, two-electrode voltage clamp",Xenopus oocytes,"pH 7.4, up to 100 µM, at -17.2 mV",,EC50,179 µM
N[C@@H](CO)C(=O)O,NAA80,"substrate, DTNB",,"2 mM, 30 min, 37 °C, together with: acetyl-CoA 500 µM",,product formation,3.24 µM
CN1CCC2(CC1)NC(=O)c1c(c3ccc(Cl)c(Cl)c3n1C)C2C#N (racemic),"Serine/threonine-protein kinase MRCK gamma (CDC42BPG, Homo sapiens, UniProt Q6DT37)",thermal shift,,"10 µM, 2 µM protein",higher = stronger binding,ΔTm,-1 °C
CC(C)CCC[C@@H](C)[C@H]1CC[C@H]2[C@@H]3CC=C4C[C@@H](O)CC[C@]4(C)[C@H]3CC[C@]12C,"uncharacterized protein (Toxoplasma gondii, UniProt D3XD39)",measured: [3H]compound,"COS-7 cells, transfected","concentration not given, together with: human apoA-I",,lipid efflux,6.7%
CC[C@]1(O)C[C@H]2CN(CCc3c([nH]c4ccccc34)[C@@](C(=O)OC)(c3cc4c(cc3OC)N(C=O)[C@H]3[C@@](O)(C(=O)OC)[C@H](OC(C)=O)[C@]5(CC)C=CCN6CC[C@]43[C@@H]65)C2)C1,Genome polyprotein NS3 helicase domain,"DNA binding, inhibitor",hepatitis C virus,"100 µM, together with: Cy5-dT15 DNA",,inhibition,2%
O=O,"Hypoxia-inducible factor 1-alpha inhibitor (HIF1AN, Homo sapiens, UniProt Q9NWT6, Q147A)","enzyme activity, substrate, rates, initial, MALDI-TOF MS",,"varied, pH 7.00, 37.0 °C, Q147A, together with: CTAD peptide 80 µM, 2-oxoglutarate 100 µM",,apparent kcat,0.517 ± 0.0833 s⁻¹
CC(C)(O)c1ccc(-c2nc3cc(NC(=O)c4ccc(-c5ccccc5)cc4)ccc3c(=O)[nH]2)cc1,"Poly [ADP-ribose] polymerase tankyrase-2 (TNKS2, Homo sapiens, UniProt Q9H2K2)","PARylation, inhibitor, biochemical PARylation",,,baseline: TNKS1 IC50 over TNKS2 IC50,selectivity ratio,1940
N#Cc1cccc2c1CC[C@H]2NC(=O)c1ccc(Nc2ncnc3ccccc23)cc1,"WD repeat-containing protein 91 WD40 domain, residues 392–747","binding, SPR single-concentration screen",,45 µM,,SPR response,38.6 RU and 30.7 RU
CCn1c(=O)[nH]c2cc(C(=O)NC(c3ccc(F)cc3)c3cnn(C)c3)ccc2c1=O (stereo not drawn),WD repeat-containing protein 91,"binding, SPR steady state",,0.05859 µM,,SPR response,1.2 RU
N#CC1CCN(C(=O)c2ccc(OC3CCC3)cc2)CC1,"WD repeat-containing protein 91 WD40 domain, residues 392–747",SPR,,45 µM,,binding,-31% and -6%
N=C(N)NC(=O)Cc1c(Cl)cccc1Cl,Genome polyprotein NS3 helicase domain,"DNA binding, inhibitor",hepatitis C virus,"100 µM, together with: Cy5-dT15 DNA",,inhibition,1%

# Excerpt of the above:
SMILES,target,assay,test system,setting,scale,endpoint,value
CC[C@H](C)[C@H](NC(=O)[C@H](CCSC)NC(=O)[C@H](CCSC)NC(=O)[C@H](C)NC(=O)[C@H](C)NC(=O)[C@H](Cc1ccc(O)cc1)NC(=O)[C@H](C)NC(=O)[C@H](CCCCN)NC(=O)CNC(=O)[C@@H](NC(=O)[C@@H](NC(=O)[C@H](CCSC)NC(=O)[C@H](Cc1c[nH]cn1)NC(=O)CN)[C@@H](C)O)C(C)C)C(=O)N[C@@H](CCSC)C(=O)N[C@@H](CCC(=O)O)C(=O)N[C@@H](Cc1ccc(O)cc1)C(=O)N[C@@H](Cc1ccc(O)cc1)C(=O)N[C@@H](CCCNC(=N)N)C(=O)N[C@@H](CCC(N)=O)C(=O)N[C@@H](CO)C(=O)N[C@@H](CCCCN)C(=O)N[C@@H](C)C(=O)N[C@@H](CCCCN)C(=O)N[C@@H](CCCCN)C(=O)N[C@@H](CC(C)C)C(=O)N[C@@H](CCC(N)=O)C(=O)N[C@@H](C)C(=O)N[C@@H](CCSC)C(=O)N[C@@H](CCCNC(=N)N)C(=O)O,CALM1 Ca2+-bound N-lobe,"binding, isothermal titration calorimetry",,"N-lobe, CaV2.1 IQ domain, unit not given, together with: Ca2+",baseline: wild-type IQ domain,ΔΔG,1.18
O=C(O)[C@@H]1CN(C(=O)c2cc(-c3ccccc3)c[nH]2)C[C@H]1c1ccc(Cl)cc1,"WD repeat-containing protein 91 WD40 domain, residues 392–747",SPR,,45 µM,,binding,30% and 42%
N[C@H]1CON=C1O,Genome polyprotein NS3 helicase domain,"DNA binding, inhibitor",hepatitis C virus,"100 µM, together with: Cy5-dT15 DNA",,inhibition,0%
O=C(NC1CCCS(=O)(=O)c2ccccc21)c1ccc2nc(O)cnc2c1 (stereo not drawn),WD repeat-containing protein 91,"binding, SPR steady state",,0.9375 µM,,SPR response,7.33 RU
C[C@@H](O)[C@H](N)C(=O)O,NAA80,"substrate, DTNB",,"2 mM, 30 min, 37 °C, together with: acetyl-CoA 500 µM",,product formation,1.93 µM
